Results of several laboratories.
Several values in a cell are separate wells, animals, samples, runs or records. ± gives the spread as reported.
rep main protease: Replicase polyprotein 1ab, main protease (rep, Porcine epidemic diarrhea virus, UniProt P0C6Y4)
STK16: Serine/threonine-protein kinase 16 (STK16, Homo sapiens, UniProt O75716)
Sequence of UniProt O75716 (whole entry, looked up): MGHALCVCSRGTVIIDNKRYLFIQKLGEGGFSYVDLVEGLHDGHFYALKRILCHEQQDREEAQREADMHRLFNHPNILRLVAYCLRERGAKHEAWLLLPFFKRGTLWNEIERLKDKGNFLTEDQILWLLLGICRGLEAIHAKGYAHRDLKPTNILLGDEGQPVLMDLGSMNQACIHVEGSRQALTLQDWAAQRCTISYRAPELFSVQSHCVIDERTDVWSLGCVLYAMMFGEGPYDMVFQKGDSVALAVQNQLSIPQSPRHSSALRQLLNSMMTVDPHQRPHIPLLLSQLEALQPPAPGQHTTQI
SNCA fibrils: Alpha-synuclein, fibrils (SNCA, Homo sapiens, UniProt P37840)
rep papain-like protease: Replicase polyprotein 1ab, papain-like protease (rep, Porcine epidemic diarrhea virus, UniProt P0C6Y4)
SMARCA2: SWI/SNF-related matrix-associated actin-dependent regulator of chromatin subfamily A member 2 (SMARCA2, Homo sapiens, UniProt P51531)
Sequence of UniProt P51531 (whole entry, looked up): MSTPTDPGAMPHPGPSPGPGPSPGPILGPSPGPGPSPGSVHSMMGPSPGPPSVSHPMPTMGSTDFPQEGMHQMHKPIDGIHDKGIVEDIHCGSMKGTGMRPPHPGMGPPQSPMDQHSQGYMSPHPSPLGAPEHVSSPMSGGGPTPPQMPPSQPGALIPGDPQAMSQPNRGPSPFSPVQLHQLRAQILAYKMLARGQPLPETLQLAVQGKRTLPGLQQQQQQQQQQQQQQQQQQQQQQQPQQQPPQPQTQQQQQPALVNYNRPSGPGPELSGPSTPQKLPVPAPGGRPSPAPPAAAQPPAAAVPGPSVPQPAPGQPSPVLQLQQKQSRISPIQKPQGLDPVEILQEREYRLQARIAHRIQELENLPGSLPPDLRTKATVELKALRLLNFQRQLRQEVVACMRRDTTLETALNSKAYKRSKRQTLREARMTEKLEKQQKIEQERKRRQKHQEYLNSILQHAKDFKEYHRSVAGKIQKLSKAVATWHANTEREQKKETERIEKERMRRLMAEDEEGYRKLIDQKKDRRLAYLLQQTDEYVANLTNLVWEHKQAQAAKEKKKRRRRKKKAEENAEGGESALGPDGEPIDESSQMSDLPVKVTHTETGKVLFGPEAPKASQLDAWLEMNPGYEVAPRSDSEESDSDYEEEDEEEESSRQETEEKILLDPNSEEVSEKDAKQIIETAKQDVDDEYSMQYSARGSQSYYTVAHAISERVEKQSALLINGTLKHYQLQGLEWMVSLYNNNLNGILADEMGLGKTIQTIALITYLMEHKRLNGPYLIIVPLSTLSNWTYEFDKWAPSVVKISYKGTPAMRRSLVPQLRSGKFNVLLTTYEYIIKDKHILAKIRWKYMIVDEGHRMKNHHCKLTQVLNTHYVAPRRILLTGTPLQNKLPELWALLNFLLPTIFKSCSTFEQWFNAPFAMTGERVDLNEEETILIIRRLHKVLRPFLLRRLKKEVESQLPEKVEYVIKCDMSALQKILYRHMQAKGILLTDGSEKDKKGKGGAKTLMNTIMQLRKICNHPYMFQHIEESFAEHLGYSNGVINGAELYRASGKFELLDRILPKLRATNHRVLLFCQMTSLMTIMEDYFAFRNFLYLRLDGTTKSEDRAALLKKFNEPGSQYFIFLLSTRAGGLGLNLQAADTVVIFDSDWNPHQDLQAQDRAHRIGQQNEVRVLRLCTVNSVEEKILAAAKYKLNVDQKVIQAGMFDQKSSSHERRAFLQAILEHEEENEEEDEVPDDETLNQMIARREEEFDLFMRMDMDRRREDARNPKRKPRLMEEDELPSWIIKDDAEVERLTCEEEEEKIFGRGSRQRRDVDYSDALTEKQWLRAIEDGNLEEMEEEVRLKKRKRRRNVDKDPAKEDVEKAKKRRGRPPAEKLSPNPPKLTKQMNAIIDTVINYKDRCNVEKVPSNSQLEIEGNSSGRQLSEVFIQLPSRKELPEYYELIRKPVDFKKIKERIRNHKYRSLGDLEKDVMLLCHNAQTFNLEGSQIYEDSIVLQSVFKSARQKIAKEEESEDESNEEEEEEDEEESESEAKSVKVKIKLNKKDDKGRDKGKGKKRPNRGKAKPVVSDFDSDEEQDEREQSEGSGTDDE
PRKAA2 with beta1 gamma1: 5'-AMP-activated protein kinase catalytic subunit alpha-2, with beta1 gamma1 (PRKAA2, Homo sapiens, UniProt P54646)
Sequence of UniProt P54646 (whole entry, looked up): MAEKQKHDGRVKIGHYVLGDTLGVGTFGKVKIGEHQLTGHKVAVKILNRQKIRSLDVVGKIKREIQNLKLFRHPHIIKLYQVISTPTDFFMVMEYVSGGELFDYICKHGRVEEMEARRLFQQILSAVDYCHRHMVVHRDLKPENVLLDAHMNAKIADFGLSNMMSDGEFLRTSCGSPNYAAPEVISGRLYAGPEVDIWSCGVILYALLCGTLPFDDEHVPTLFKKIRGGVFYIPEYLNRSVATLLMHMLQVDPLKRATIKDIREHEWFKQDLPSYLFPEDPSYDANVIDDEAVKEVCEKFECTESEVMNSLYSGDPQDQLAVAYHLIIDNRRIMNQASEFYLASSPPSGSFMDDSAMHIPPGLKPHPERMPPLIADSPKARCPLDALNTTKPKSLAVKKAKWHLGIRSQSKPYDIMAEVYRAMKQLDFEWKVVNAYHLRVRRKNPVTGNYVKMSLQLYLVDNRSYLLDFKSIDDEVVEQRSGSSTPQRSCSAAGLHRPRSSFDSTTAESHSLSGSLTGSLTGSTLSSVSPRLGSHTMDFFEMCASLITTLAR
Sequence of UniProt Q8IWT6 (whole entry, unmodified, looked up): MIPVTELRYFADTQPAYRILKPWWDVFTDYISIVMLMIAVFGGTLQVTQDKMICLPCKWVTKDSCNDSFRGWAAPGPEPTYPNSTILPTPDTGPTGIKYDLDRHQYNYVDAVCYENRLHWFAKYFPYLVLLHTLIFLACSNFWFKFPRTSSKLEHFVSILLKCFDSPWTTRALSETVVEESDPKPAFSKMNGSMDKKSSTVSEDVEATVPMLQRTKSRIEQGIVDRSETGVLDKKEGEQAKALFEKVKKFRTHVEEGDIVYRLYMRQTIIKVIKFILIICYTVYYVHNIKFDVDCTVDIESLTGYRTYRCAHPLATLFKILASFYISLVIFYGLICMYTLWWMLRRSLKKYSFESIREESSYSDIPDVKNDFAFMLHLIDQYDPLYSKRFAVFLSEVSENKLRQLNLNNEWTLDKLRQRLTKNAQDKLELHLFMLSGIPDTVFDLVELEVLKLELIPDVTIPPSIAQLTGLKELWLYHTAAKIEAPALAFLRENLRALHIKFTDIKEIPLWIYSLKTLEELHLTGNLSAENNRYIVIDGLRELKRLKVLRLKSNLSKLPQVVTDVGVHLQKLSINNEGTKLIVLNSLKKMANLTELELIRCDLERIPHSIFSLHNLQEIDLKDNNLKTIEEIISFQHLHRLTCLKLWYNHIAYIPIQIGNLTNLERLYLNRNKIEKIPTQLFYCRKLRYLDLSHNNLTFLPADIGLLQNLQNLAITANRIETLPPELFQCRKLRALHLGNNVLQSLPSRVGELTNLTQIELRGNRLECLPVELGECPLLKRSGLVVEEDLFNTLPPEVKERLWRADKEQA
Sequence of UniProt Q93009 (whole entry, looked up): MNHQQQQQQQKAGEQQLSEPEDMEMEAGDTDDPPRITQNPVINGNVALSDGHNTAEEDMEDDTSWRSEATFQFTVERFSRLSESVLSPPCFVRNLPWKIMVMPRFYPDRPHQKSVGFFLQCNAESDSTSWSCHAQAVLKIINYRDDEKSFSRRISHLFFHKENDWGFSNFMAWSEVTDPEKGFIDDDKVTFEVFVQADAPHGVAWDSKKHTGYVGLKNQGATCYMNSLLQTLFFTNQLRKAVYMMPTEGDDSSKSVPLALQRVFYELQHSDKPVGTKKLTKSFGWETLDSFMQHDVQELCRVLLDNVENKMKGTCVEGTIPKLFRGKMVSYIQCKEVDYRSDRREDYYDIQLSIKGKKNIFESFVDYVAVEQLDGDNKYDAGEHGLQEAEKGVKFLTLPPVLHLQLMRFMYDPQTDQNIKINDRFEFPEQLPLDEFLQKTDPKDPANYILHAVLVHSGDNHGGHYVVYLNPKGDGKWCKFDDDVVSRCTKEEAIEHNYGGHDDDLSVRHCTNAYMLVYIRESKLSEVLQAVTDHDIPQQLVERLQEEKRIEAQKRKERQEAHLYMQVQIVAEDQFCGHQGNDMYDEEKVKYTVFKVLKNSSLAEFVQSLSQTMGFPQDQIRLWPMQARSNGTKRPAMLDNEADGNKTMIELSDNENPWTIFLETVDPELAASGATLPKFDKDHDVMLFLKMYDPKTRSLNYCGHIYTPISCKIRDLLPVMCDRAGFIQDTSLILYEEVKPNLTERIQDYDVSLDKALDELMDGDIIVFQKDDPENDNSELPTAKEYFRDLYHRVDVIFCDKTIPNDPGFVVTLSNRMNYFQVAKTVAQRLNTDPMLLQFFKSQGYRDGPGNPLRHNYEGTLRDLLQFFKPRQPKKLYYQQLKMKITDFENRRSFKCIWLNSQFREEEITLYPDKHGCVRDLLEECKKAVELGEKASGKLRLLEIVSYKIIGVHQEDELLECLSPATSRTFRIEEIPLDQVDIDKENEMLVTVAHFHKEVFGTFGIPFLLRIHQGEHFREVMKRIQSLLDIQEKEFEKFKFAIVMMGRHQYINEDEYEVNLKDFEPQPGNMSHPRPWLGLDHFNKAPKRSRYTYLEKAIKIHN
Sequence of UniProt P50613 (whole entry, looked up): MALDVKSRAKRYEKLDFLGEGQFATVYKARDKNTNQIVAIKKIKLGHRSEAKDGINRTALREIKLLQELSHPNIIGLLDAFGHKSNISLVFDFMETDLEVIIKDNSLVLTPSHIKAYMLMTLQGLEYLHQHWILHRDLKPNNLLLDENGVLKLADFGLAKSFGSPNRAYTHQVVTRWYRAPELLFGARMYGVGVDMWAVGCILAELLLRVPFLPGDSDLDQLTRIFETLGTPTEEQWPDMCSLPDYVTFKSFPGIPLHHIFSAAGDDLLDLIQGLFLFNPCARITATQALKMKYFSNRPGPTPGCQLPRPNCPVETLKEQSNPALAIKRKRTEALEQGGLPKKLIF
Sequence of UniProt P28062 (whole entry, looked up): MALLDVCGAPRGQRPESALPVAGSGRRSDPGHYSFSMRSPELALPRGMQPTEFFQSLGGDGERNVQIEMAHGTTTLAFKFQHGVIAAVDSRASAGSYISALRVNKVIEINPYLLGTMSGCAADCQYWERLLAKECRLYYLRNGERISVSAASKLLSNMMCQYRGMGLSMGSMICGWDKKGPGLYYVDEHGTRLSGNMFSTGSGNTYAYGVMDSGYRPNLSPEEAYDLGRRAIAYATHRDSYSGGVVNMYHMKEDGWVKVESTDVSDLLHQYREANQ

Structure (SMILES)	target	assay	test system	conditions	inhibition
CN1CCN(c2cc(-c3ccncc3)c(-c3ccc4ccccc4c3)nn2)CC1	VIPR2 (Homo sapiens, UniProt P41587)	antagonist, FLIPR	–	10 µM	5.8%
COc1cc(CNC(=O)c2ccccc2)cc(Br)c1OC	rep main protease	enzyme activity, inhibitor, FRET	–	10 µM	< 0%
CNc1cc(Oc2cc(C(=O)Nc3cc(N4CCN(C)CC4)cc(C(F)(F)F)c3)ccc2C)ncn1	MASTL (Homo sapiens, UniProt Q96GX5)	kinase probe binding, inhibitor, KiNativ	Huh-7	1 µM	-31.4%
COc1cc(C(=O)NS(=O)(=O)c2ccccc2C)ccc1Cc1cn(C)c2ccc(NC(=O)OC3CCCC3)cc12	Volume-regulated anion channel subunit LRRC8C, part LRRC8A IL1 chimera (LRRC8C, Homo sapiens, UniProt Q8TDW0, C43G)	ion current, inhibitor, whole-cell patch clamp	HCT LRRC8-/- cells	30 µM, +100 mV	96.7% and 98% and 99.4% and 98.2% and 96.6%
CC(C)(C)NC(=O)C[C@H](NC(=O)C(=O)c1c[nH]c2ccccc12)C(=O)NCc1cccc(B(O)O)c1	Proteasome component C5/PSMB8 (Homo sapiens, UniProt P20618+P28062)	β5i proteasome activity, inhibitor	PBMC	concentration not given	inhibited
Cc1cc(-c2ccnc3[nH]cc(F)c23)cc(F)c1[C@@]1(O)[C@H](C)CN(C2CCS(=O)(=O)CC2)C[C@@H]1C	STK16	ATP probe binding, KiNativ, item: Lys2 site	HEK293T cell lysate	1 µM	16.3%
CN(C)C1CCN(CC#Cc2nn(C3CCCC3)c3nc(NCc4ccccc4)ncc23)C1 (stereo not shown)	Cyclin-dependent kinase 7, with cyclin H, MAT1 (CDK7, Homo sapiens, UniProt P50613)	enzyme activity, inhibitor, Z'-LYTE	–	10000 nM	6%
COc1ccc(C(=O)Nc2ccc(N3CCC4(CC3)CCN(c3ccccn3)C4)cc2)cc1	SNCA fibrils	radioligand binding	–	1 µM, 50 nM protein, together with: [3H]BF2846 4 nM	53%
CCC(CC(=O)NCc1cc(Br)c(OC)c(OC)c1)c1ccccc1 (stereo not shown)	rep main protease	enzyme activity, inhibitor, FRET	–	10 µM	< 0%
OO	Histone acetyltransferase p300, BHC core (EP300, Homo sapiens, UniProt Q09472)	enzyme activity	–	250 µM, together with: p300 BHC, with 1 mM DTT	2 ± 2%
COc1cc(CNC(=O)c2cccc(C#N)c2)cc(Br)c1OC	rep papain-like protease	enzyme activity, inhibitor, FRET	–	10 µM	< 0%
COc1c(C#N)ccnc1N1C2CCC1CN(C(=O)c1cccnc1-n1cccn1)C2	central benzodiazepine receptor	binding	–	10 µM	-15%
Oc1ccc(/C=C/c2cc(O)cc(O)c2)cc1	α-amylase (human)	enzyme activity, inhibitor	–	100 µM	< 20%
CC[C@@H]1[C@H](F)C(=O)N[C@@H]1COc1nccc2cc(C(N)=O)c(OC)cc12	NEK9 (Homo sapiens, UniProt Q8TD19)	ATP-site probe binding, ActivX profiling	THP-1 cell lysate	0.01 mM, Lys2 site	1.1%
COc1cc(-c2cc(C(C)=O)n3ccccc23)cc(OC)c1Cn1ccnc1	SMARCA2	–	–	1 µM	-8.8%
COc1ccc(C(=O)Nc2ccc(N3C4CCC3CN(c3ccccn3)C4)cc2)cc1	SNCA fibrils	radioligand binding	–	1 µM, 50 nM protein, together with: [3H]BF2846 4 nM	inhibited
COc1ccc(C(=O)NCc2cc(Br)c(OC)c(OC)c2)cc1OC	rep papain-like protease	enzyme activity, inhibitor, FRET	–	10 µM	< 0%
Cc1nn(-c2nc3c(F)cc(F)cc3s2)c(O)c1C(c1ccccc1C(=O)O)c1c(C)nn(-c2nc3c(F)cc(F)cc3s2)c1O	CGAS (Homo sapiens, UniProt Q8N884)	enzyme activity, inhibitor, pyrophosphatase-coupled	–	25 µM, 1.5 h, together with: HT-DNA	54.5%
Cn1cc(-c2cnc3ccc(NC(=O)Nc4ccc(F)c(Br)c4)cc3n2)cn1	MAP3K5 (Homo sapiens, UniProt Q99683)	kinase binding, KiNativ profiling, item: Lys2 peptide	PANC-1 lysate	7.5 µM	6.5%

Structure (SMILES)	target	assay	test system	conditions	inhibition
COc1cc2ncnc(Nc3ccc(Oc4ccccc4)c(C)c3C)c2cc1OC	PRKAA2 with beta1 gamma1	kinase activity, inhibitor	–	1 µM	9%
O=C(NO)c1ccc(CN2CCCCc3ccccc32)c(F)c1	ADRA1D (Homo sapiens, UniProt P25100)	radioligand binding, radioligand displacement	–	10 µM, mean of replicates	1.31%
O=C(NCc1ccc(O)c(O)c1)c1ccccc1	rep main protease	enzyme activity, inhibitor, FRET	–	10 µM	< 0%
Cc1cnc2nc(SCC(=O)Nc3nccs3)n(CCc3ccccc3)c(=O)c2n1	Phosphatidylinositol 4-phosphate 3-kinase C2 domain-containing subunit alpha (Pik3c2a, Mus musculus, UniProt Q61194)	enzyme activity, inhibitor	–	concentration not given, together with: ATP 10 µM	inactive
Cc1cc2c(cc1N1C(=O)c3cccc4c(CCCO)ccc(c34)C1=O)n(C)c(=O)n2C (racemic)	BPTF (Homo sapiens, UniProt Q12830)	binding, BROMOscan binding	–	1000 nM	37%
NC/C(=C\F)COc1cccc(Cn2c(=S)[nH]c(=O)c3[nH]cnc32)c1	rat central imidazoline I2 receptor	radioligand binding	–	10 µM	< 50%
O=C(C[C@@H](C(F)F)n1ccc(F)n1)N1CCC(O)(Cn2cnc3c(cnn3-c3ccc(F)cc3)c2=O)CC1	USP7 (Homo sapiens, UniProt Q93009)	enzyme activity, inhibitor	–	5 µM	104% and 101%
CCOc1cc(-c2nncn2C)ccc1Nc1ncc2cc(C)nc(NCC(C)(C)C)c2n1	PRKAA2 with beta1 gamma1	kinase activity, Z'-LYTE	–	1 µM	< 15%
CSc1ccccc1C(=O)NCc1cc(O)c(O)c(Br)c1	rep papain-like protease	enzyme activity, FRET	–	concentration not given	inactive
Cc1ccc(C(=O)Nc2ccc(S(=O)(=O)O)c3cc(S(=O)(=O)O)cc(S(=O)(=O)O)c23)cc1NC(=O)c1cccc(NC(=O)Nc2cccc(C(=O)Nc3cc(C(=O)Nc4ccc(S(=O)(=O)O)c5cc(S(=O)(=O)O)cc(S(=O)(=O)O)c45)ccc3C)c2)c1	Cullin-1, C-terminal domain with ROC1 (Homo sapiens, UniProt Q13616)	FRET	–	0.8 µM	50%
CC/C(=N\NC(=O)NCc1cccc(O)c1)c1ccc(O)c(C)c1O	PRKAA2 with beta1 gamma1	kinase activity	–	0.1 µM	18.8%
COc1ccc(F)cc1C(=O)NCc1ccc(-c2nn([C@@H](C)C(F)(F)F)c(N)c2C(N)=O)cc1	ULK3 (Homo sapiens, UniProt Q6PHR2)	probe binding, competitive chemoproteomics	human PBMCs	10 µM	-1%
COc1cc(CNC(=O)N2CCCC2)cc(Br)c1OC	rep main protease	enzyme activity, inhibitor, FRET	–	10 µM	< 0%
COc1cc(-c2cc(C(C)=O)n3ccccc23)c(OC)cc1Cn1ccnc1	SMARCA2	–	–	1 µM	-8.81%
Cc1c(O)cc2oc3c(c(=O)c2c1O)-c1ccccc1OC3O (stereo not shown)	CDK7 (Homo sapiens, UniProt P50613)	enzyme activity, inhibitor	–	10 µM	> 50%
Cc1cc(-c2ccnc3[nH]cc(F)c23)cc(F)c1[C@@]1(O)[C@H](C)CN(C(=O)CN)C[C@@H]1C	STK16	ATP probe binding, KiNativ, item: Lys2 site	HEK293T cell lysate	10 µM	90.8%
O=C(Nc1cccc2c(=O)cc(-c3nnn[nH]3)oc12)c1ccc(OCCCCc2ccccc2)cc1	LRRC8A/LRRC8C (Homo sapiens, UniProt Q8IWT6+Q8TDW0, M48D/T48D)	ion current, whole-cell patch clamp	HCT LRRC8-/- cells	0.3 µM, +100 mV, T48D/M48D heteromers	2.34% and -2.2% and 0.358%
COc1cc(CNC(=O)c2ccno2)cc(Br)c1OC	rep main protease	enzyme activity, inhibitor, FRET	–	10 µM	< 0%

A few entries again:
Structure (SMILES)	target	assay	test system	conditions	inhibition
COc1ccc(C(=O)Nc2ccc(N3CCC4(CC3)CCN(c3ccccn3)C4)cc2)cc1	SNCA fibrils	radioligand binding	–	1 µM, 50 nM protein, together with: [3H]BF2846 4 nM	53%
CCC(CC(=O)NCc1cc(Br)c(OC)c(OC)c1)c1ccccc1 (stereo not shown)	rep main protease	enzyme activity, inhibitor, FRET	–	10 µM	< 0%
OO	Histone acetyltransferase p300, BHC core (EP300, Homo sapiens, UniProt Q09472)	enzyme activity	–	250 µM, together with: p300 BHC, with 1 mM DTT	2 ± 2%
COc1cc(CNC(=O)c2cccc(C#N)c2)cc(Br)c1OC	rep papain-like protease	enzyme activity, inhibitor, FRET	–	10 µM	< 0%
COc1c(C#N)ccnc1N1C2CCC1CN(C(=O)c1cccnc1-n1cccn1)C2	central benzodiazepine receptor	binding	–	10 µM	-15%
